# Measurements pooled from the literature.
# ± gives the spread as reported.
# Chain of UniProt F4KU78 (whole entry, looked up): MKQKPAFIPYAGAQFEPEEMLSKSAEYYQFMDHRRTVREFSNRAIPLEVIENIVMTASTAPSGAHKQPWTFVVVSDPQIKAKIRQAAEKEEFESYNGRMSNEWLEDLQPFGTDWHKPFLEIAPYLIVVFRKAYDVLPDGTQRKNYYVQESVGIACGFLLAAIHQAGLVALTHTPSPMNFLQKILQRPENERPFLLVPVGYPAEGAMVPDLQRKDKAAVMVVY
# Chain of UniProt P08183 (whole entry, looked up): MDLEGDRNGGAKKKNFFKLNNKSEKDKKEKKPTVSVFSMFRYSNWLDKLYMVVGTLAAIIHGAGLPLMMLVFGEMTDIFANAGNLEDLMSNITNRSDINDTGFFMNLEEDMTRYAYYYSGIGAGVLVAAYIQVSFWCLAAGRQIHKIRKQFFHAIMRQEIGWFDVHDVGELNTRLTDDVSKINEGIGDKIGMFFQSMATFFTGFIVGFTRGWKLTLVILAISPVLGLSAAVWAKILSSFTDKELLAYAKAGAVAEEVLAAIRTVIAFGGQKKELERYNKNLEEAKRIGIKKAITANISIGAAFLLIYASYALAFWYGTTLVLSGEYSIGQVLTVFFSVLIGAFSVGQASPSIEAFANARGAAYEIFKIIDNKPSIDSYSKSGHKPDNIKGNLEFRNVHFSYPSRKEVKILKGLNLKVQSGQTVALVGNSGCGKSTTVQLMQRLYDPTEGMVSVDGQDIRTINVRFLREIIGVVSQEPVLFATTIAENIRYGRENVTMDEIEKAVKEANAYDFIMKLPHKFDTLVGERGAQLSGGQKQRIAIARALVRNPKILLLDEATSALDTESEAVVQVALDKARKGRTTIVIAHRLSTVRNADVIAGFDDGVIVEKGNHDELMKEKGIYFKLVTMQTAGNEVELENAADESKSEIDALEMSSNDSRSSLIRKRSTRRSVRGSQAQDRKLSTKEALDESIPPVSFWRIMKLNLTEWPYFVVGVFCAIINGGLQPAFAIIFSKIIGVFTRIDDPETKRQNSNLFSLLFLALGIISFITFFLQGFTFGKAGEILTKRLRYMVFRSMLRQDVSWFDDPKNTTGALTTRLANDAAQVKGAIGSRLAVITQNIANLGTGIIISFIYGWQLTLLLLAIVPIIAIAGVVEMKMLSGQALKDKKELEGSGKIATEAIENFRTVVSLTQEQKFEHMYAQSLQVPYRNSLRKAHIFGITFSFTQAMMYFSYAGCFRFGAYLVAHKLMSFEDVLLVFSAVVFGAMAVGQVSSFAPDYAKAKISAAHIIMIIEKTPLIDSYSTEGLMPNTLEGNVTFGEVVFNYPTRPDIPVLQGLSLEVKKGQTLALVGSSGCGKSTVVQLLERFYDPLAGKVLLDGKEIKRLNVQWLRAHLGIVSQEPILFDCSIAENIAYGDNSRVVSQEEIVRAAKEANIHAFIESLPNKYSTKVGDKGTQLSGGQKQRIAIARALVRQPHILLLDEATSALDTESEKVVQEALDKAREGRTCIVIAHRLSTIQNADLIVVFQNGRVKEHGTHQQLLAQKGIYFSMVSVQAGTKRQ
# Chain of UniProt P10632 (whole entry, looked up): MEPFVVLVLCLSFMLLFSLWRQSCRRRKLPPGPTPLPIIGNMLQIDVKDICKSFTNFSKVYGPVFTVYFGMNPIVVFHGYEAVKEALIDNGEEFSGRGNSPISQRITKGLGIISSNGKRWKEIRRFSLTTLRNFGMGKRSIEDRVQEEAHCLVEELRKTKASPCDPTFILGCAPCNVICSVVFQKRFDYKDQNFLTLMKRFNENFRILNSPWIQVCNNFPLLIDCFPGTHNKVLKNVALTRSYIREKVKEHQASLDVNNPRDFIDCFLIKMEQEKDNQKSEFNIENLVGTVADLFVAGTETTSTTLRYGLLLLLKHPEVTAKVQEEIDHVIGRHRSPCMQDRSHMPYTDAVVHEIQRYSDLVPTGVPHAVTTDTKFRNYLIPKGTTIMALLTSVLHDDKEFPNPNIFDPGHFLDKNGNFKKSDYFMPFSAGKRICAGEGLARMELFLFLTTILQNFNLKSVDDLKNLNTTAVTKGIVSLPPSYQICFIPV
SMILES,tested on,assay,system,conditions,scale,quantity,result
CN1CC[C@]23c4c5ccc(O[C@@H]6O[C@H](C(=O)O)[C@@H](O)[C@H](O)[C@H]6O)c4O[C@H]2[C@@H](O)C=C[C@H]3[C@H]1C5,,,"rat, whole blood","1000 nM, 4 freeze-thaw cycles",,stability bias,-12.8%
O=C1c2c(O)c(=O)ccn2N([C@@H]2c3ccccc3SCc3c2ccc(F)c3F)[C@@H]2COCCN12,,,"BALB/c mice, plasma","oral, 5 mg/kg baloxavir marboxil, 12 h",,plasma concentration,3 ng/mL
O=c1ccc2ccccc2o1,NHEK,cell count,,"concentration not given, 24 h, AhR translocation panel",,chance response,0.04%
Cc1ncc2n1-c1ccc(Cl)cc1C(c1ccccc1F)=NC2,,,"healthy human volunteers, plasma","oral, dose not given, CYP3A probe substrate, with: multiple-dose momelotinib",baseline: compound alone,decrease in Cmax,8%
O=C(c1ccc(F)c(F)c1Nc1ccc(I)cc1F)N1CC(O)([C@@H]2CCCCN2)C1,,,patients aged sample A to sample B years,"oral, dose not given",,treatment-related serious AE,7%
CN1CC[C@]23c4c5ccc(O)c4O[C@H]2[C@@H](O[C@@H]2O[C@H](C(=O)O)[C@@H](O)[C@H](O)[C@H]2O)C=C[C@H]3[C@H]1C5,,,"rat, whole blood","1000 nM, 4 freeze-thaw cycles",,stability bias,4.07%
CC[C@@H]([C@H](C)O)n1ncn(-c2ccc(N3CCN(c4ccc(OC[C@@H]5CO[C@@](Cn6cncn6)(c6ccc(F)cc6F)C5)cc4)CC3)cc2)c1=O,African green monkey cells,,,5 days,,CC50,> 100 µM
COc1cccc(-c2n[nH]c(SCc3ccccn3)n2)c1OC,Salmonella typhimurium,"Ames test, plate incorporation",TA1535,"0.063 mg/plate, without S9",,revertant colonies per plate,20
[Cl-].[Cl-].[Pt+2].[Ru+2].c1ccc(-c2nc3ccccc3nc2-c2ccccn2)nc1.c1cnc2c(c1)ccc1cccnc12.c1cnc2c(c1)ccc1cccnc12,Danio rerio,,embryos,"15 µM, 12 h",,survival rate,93.3 ± 2.1%
CNCC[C@H](Oc1cccc2ccccc12)c1cccs1,African green monkey cells,,,5 days,,CC50,17.8 µM
CC(C)CC(=O)OC[C@H]1O[C@@](C#N)(c2ccc3c(N)ncnn23)[C@H](O)[C@@H]1O,"Cytochrome P450 2C8 (CYP2C8, Homo sapiens, UniProt P10632)",metabolic stability,recombinant enzyme,1 µM,,half-life,3.11 ± 0.0909 min
CN1[C@H]2CC[C@@H]1[C@@H](C(=O)O)[C@@H](OC(=O)c1ccccc1)C2,,,"rat, whole blood","10 nM, 4 freeze-thaw cycles",,stability bias,-9.67%
CC(=O)c1ccc2c(c1)N(CCCN1CCN(CCO)CC1)c1ccccc1S2,African green monkey cells,,,5 days,,CC50,14.6 µM
O=[N+]([O-])c1ccc(N2CCN(CCC(O)c3ccc(F)cc3)CC2)c(C(F)(F)F)c1 (stereo not drawn),Salmonella typhimurium,"genotoxicity, SOS/umu test",TA1535/pSK1002,"0.125 mg/mL, 4 h, without S9, full range",,induction factor,0.7
CC(=O)O[C@H]1C=C[C@H]2[C@H]3Cc4ccc(O)c5c4[C@@]2(CCN3C)[C@H]1O5,,,rat whole blood,"500 nM, 4 h, room temperature",,stability bias,14.1%
Cc1cc(C(=O)NC(C)(C)COc2cccc3c2C(N)=NS(=O)(=O)N3)cc(C)n1,Salmonella typhimurium,"Ames test, initial",TA100,5.00 µg/plate,baseline: solvent control,revertant ratio,1.1
COC(=O)[C@H]1[C@@H](OC(=O)c2ccccc2)C[C@@H]2CC[C@H]1N2C,,,"rat, whole blood","1000 nM, 4 h, room temperature, bench-top storage",,stability bias,0.77%
C[C@H]1[C@H]2CC[C@H]3[C@@H]4CC=C5C[C@@H](N(C)C)CC[C@]5(C)[C@H]4CC[C@]23CN1C,African green monkey cells,,,5 days,,CC50,34.7 µM
COC(=O)[C@@H]1[C@H]2CC[C@@H](C[C@@H]1O)N2C,,,"rat, whole blood","10 nM, 4 h, room temperature, bench-top storage",,stability bias,2.83%
CN1CCN(CCCN2c3ccccc3Sc3ccccc32)CC1,African green monkey cells,,,5 days,,CC50,14.6 µM
Cc1cc2nc3c(=O)[nH]c(=O)nc-3n(C[C@H](O)[C@H](O)[C@H](O)COP(=O)(O)O)c2cc1C,"Iodotyrosine deiodinase (Haliscomenobacter hydrossis, UniProt F4KU78)","bound cofactor redox, redox titration",,"pH 7.4, 25 °C, anaerobic, no substrate",,midpoint potential,-210 ± 6 mV
COC(=O)[C@H]1[C@@H](OC(=O)c2ccccc2)C[C@@H]2CC[C@H]1N2,,,"rat, whole blood","1000 nM, 4 freeze-thaw cycles",,stability bias,9.62%
COc1ccccc1OCCNCC(O)COc1cccc2[nH]c3ccccc3c12 (stereo not drawn),African green monkey cells,,,5 days,,CC50,17 µM
O=C(NCc1cccnc1)Nc1ccc([N+](=O)[O-])cc1,mouse DRG neurons,neurite degeneration,,"50 µM, 48 h",baseline: vehicle,degeneration index difference,64.9
CCC1(CC)C(=O)NCC(C)C1=O (stereo not drawn),African green monkey cells,,,5 days,,CC50,> 25.1 µM
O=S(=O)(c1ccc(O)cc1)c1ccc(O)cc1,"HepG2 spheroids, dissociated",annexin V-FITC/PI flow cytometry,,"0.10 µM, 96 h",,viable cells,36.8 ± 14%
CC(=O)Oc1ccc2c3c1O[C@H]1[C@@H](OC(C)=O)C=C[C@H]4[C@@H](C2)N(C)CC[C@@]341,,,"rat, whole blood","10 nM, 4 h, room temperature, bench-top storage",,stability bias,-13.2%
CCC1(c2ccccc2)C(=O)NC(=O)NC1=O,CYP2B6,"induction, measured: CYP2B6 mRNA",primary human hepatocytes,"NG, 3 days, 0.1% DMSO",baseline: vehicle,mRNA level,13.8 to 105 fold
CCN(CC)Cc1ccc2cc(COC(=O)Nc3ccc(C(=O)NO)cc3)ccc2c1,African green monkey cells,,,5 days,,CC50,0.767 µM
CCOC(=O)c1c(CSc2ccccc2)n(C)c2cc(Br)c(O)c(CN(C)C)c12,"ATP-dependent translocase ABCB1 (ABCB1, Homo sapiens, UniProt P08183)","transport, inhibitor",,"100 µM, 5 (unit not given), pH 7, with: NMN",,inhibition,92.3%

# Excerpt of the above:
SMILES,tested on,assay,system,conditions,scale,quantity,result
COc1cccc(-c2n[nH]c(SCc3ccccn3)n2)c1OC,Salmonella typhimurium,"Ames test, plate incorporation",TA1535,"0.063 mg/plate, without S9",,revertant colonies per plate,20
CCN(CC)Cc1ccc2cc(COC(=O)Nc3ccc(C(=O)NO)cc3)ccc2c1,African green monkey cells,,,5 days,,CC50,0.767 µM
COC(=O)[C@H]1[C@@H](OC(=O)c2ccccc2)C[C@@H]2CC[C@H]1N2C,,,"rat, whole blood","1000 nM, 4 h, room temperature, bench-top storage",,stability bias,0.77%
CC(=O)O[C@H]1C=C[C@H]2[C@H]3Cc4ccc(O)c5c4[C@@]2(CCN3C)[C@H]1O5,,,rat whole blood,"500 nM, 4 h, room temperature",,stability bias,14.1%
